Results pooled from the literature.
Each numbered part is a random draw from the data of one study; scales do not carry over between parts. pIC50: −log10 of the molar value.

Protein sequences, listed by entry. Tags and fused reporters are not part of them. Residues count along the entry.
UniProt P04757, 26-499 limits assumed: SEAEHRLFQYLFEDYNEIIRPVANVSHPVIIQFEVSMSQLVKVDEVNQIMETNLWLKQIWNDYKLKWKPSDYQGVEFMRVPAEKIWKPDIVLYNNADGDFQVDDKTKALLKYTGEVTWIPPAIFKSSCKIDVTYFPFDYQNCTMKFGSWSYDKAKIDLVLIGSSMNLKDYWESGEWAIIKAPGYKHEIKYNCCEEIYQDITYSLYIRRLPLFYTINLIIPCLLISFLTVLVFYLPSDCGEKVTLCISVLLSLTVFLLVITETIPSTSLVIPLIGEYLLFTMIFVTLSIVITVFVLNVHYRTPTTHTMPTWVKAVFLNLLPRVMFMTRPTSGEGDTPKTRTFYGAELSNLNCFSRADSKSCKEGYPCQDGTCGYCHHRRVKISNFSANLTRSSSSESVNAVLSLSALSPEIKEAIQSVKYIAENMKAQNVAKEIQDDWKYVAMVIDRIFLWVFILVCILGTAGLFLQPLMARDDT
UniProt P12390, 25-500 limits assumed: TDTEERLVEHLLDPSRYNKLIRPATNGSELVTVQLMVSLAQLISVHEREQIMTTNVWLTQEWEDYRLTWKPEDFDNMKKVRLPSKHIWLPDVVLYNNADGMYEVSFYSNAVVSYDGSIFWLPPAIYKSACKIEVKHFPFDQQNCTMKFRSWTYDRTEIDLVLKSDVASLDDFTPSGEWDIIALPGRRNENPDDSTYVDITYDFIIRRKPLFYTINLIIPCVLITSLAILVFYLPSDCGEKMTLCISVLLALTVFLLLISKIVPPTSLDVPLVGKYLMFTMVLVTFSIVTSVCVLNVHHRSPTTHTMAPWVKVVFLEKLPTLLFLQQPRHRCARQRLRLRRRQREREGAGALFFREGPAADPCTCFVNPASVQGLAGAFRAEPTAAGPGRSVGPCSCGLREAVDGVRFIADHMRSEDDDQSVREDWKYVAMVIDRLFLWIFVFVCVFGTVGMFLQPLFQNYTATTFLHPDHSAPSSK

Study 1
Compound: N#Cc1c(-c2ccc(Cl)cc2Cl)n(-c2nc(-c3ccc(Cl)cc3)c3c(NC(=O)c4ccccc4)nnc-3[nH]2)[nH]c1=O
cell line	test	CC50
MOLT-4	SRB	> 100 µM
KM12	SRB	> 100 µM
HL-60(TB)	–	> 100 µM

Further values, each from its own experiment
SMILES	target or system	test	system	conditions	scale	endpoint	value
COc1cc(C2C(C#N)=C(N)Oc3c2c(C)nn3-c2ccc(Cl)cc2)ccc1O (stereo not drawn)	Vero E6	MTT	–	100 µM	–	viability	43.3%
CC[C@H](C)[C@@H]1NC(=O)[C@H](CCC(=O)O)NC(=O)[C@@H]2CCCN2C(=O)[C@H](Cc2c[nH]cn2)NC(=O)[C@H](CCCNC(=N)N)NC(=O)[C@H](C(C)C)NC(=O)[C@H](CC(N)=O)NC(=O)[C@@H]2CSSC[C@H](NC(=O)CN)C(=O)N[C@@H](CSSC[C@@H](C(N)=O)NC1=O)C(=O)N[C@@H](CO)C(=O)N[C@@H](Cc1c[nH]cn1)C(=O)N1CCC[C@H]1C(=O)N[C@@H](C(C)C)C(=O)N2	Neuronal acetylcholine receptor; alpha3/beta2 (Rattus norvegicus, UniProt P04757+P12390)	ion current, antagonist, two-electrode voltage clamp	Xenopus oocytes	rat, together with: ACh 100 µM	–	pIC50	< 5.00
Cc1ccc2[nH]cc(CNCC3(N4CCCC4)COC3)c2c1	A 172	–	–	30 µM, 48 h	baseline: DMSO	viability	98.6%

Some of these lines once more (further values, each from its own experiment):
SMILES	target or system	test	system	conditions	scale	endpoint	value
COc1cc(C2C(C#N)=C(N)Oc3c2c(C)nn3-c2ccc(Cl)cc2)ccc1O (stereo not drawn)	Vero E6	MTT	–	100 µM	–	viability	43.3%
